Assay results of several laboratories.
Parts stem from different laboratories: compare values within a part only.

Study 1
Target: Histone acetyltransferase KAT6A, winged helix 1, GST fusion (KAT6A, Homo sapiens, UniProt Q92794, residues 1-85)
Technique: protein binding microarray
Molecule type: double-stranded DNA, one strand shown
Medium: in vitro
Tested at: not given
Notes: 8-mer, flanks averaged, mean of 2 arrays, mostly near background
Relative to: not given
Reading: higher = stronger binding
Quantity: E-score
Target sequence (chain): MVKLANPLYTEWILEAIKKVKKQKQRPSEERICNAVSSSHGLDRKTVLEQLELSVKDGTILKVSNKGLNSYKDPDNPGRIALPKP
GGAGTCAC: -0.122
AATTCGAT: -0.139
GACTCCAA: -0.198
CTAGGTAC: -0.133
CACTCATA: -0.146
ATGGAAAC: -0.122
TCTAAACA: -0.0727
CATGATGA: -0.193
ACAATGCG: 0.197
AGATACAT: -0.17
GCGTCCGA: 0.274
ACAGAGAT: -0.215
TGCAACAA: -0.238

Study 2
Target: RING finger protein unkempt homolog, zinc fingers 1-6, GST-SBP tag (UNK, Homo sapiens, UniProt Q9C0B0, residues 30-357)
UniProt Q9C0B0, sequence (30-357, looked up): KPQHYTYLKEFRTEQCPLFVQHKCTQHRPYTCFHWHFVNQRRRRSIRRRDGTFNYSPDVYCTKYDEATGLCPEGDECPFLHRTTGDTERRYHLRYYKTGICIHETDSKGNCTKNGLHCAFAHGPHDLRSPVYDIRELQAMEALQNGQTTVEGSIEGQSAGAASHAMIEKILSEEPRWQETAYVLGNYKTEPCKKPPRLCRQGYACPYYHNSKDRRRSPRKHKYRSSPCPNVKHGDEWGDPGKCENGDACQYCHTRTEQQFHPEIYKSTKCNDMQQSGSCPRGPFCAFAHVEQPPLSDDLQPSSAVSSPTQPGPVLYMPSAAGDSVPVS
Technique: RNA Bind-n-Seq
Molecule type: RNA
Medium: in vitro
Tested at: not given
Notes: RNA with constant flanks, human-mouse chimeric sites, ends assumed
Relative to: input RNA pool
Reading: higher = stronger binding
Quantity: bound/input enrichment
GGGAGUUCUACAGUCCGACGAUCCUGGGUAUCAUCUCUCGUGCUGUUAGACACCUUUUUAAGAGUAUUGAUGAGAAAAAGACCUCAGCGAUUAAAAACGGGCUGCCCCCUCCUGAAUUCAAAGUGAAUGCCCAGUUCCUAGAGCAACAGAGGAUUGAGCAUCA: 0.402 ratio
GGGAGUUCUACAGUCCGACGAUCGAAACAUUUAAAUUUAAAGAAGCUGUUGUUCUAGGAAGUACGGACUUUCUAGAAGAUGAUAUAGAGAAAAUUGUAGAAGAACUGGGGAAAGAAUACAAGGGCAACGCUUAUCAUUUAAUGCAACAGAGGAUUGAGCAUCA: 2.23 ratio
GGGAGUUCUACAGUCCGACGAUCUACUCAACUUUCUUGCCACAUUUUGAAUUCCAAGACAUUAUUCCUCCAGAUGACUUCCUAACGAGUGAUGAAGAGCAAGAUUCCGUUUUAUUUGGAACUAUGAGAGGACAAGUUGUUGGACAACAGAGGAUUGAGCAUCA: 0.189 ratio
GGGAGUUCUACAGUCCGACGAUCGGAAGCACAAUGAUGGAGAUUGAUGGUGACAAAGGCAAGCAGGGCGGGCCCACCUACUACAUAGACACCAAUGCCCUCCGCGUGCCCAGGGAGAACAUGGAGGCCAUCUCACCACUCAAGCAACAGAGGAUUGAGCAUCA: 0.199 ratio
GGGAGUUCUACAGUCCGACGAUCAAAUCGUGUGUGUCAAAUAUUGAAAGUGCUUUAUCUACACUCCAGUAUGUAAGCAGUAUAGUAGUUUCUUUAGAGAAUAGGUCUGCCAUUGUAAAGUACAAUGCAAGCUUAGUCACUCCACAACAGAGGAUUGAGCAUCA: 2.13 ratio
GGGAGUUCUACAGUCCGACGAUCGCAAGAGAUGAUGAGGCGGCAGCUGUUGCCCUUUCCUCUCUCGUUCAUGCUUUGGAUGACUUAGACAUGGUCGCCAUCGUCCGAUAUGCUUAUGACAAAAGAUCUAAUCCUCAAGUUGGUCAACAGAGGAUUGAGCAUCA: 0.121 ratio
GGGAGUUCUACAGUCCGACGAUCAGGAGGAGAUUAAAGGGUGAGAGUGGGAUGGAGGAUUGUGUCAUGGCUCUGGAGACACUGUUCAGUGUCCUGCUUUCUCUGUGCAGACUGAUGGCCCCUUACACGCCCUUUCUGACUGAGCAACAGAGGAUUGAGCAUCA: 0.124 ratio
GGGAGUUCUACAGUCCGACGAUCUCCCAAAUCCAGCAGCUAGAAGGAGCCUUGAGACAAAGCCUGGAAAUACAGGGAAGGCGAUAACAUUGUACAUUGGUUUACAUUUUUUCCCCCUGUGUUUUCUAGGGGAGGUCAUAGUGCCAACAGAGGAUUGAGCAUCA: 0.525 ratio
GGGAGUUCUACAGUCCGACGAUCUGGCGCCUGCGCUCCCCACUCGUGUUUUUAAGUGUAUAAGAUGUAUAUACAUGUAUUUACAAUUGAGUUUUUGAUUAAUAAUGCUGAAAUGCUACUGGAGAUUAUGAAAAAUGUUUCAAUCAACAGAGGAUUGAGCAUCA: 0.21 ratio

Study 3
Target: RNA binding protein fox-1 homolog 2, RRM domain, GST-SBP tag (RBFOX2, Homo sapiens, UniProt O43251-10, residues 100-194)
Technique: RNA Bind-n-Seq
Molecule type: RNA
Medium: in vitro
Tested at: 365 nM
Notes: natural RNA segment, single round, ends assumed
Relative to: no-protein control
Reading: higher = stronger binding
Quantity: RBNS enrichment (R)
Residues (chain): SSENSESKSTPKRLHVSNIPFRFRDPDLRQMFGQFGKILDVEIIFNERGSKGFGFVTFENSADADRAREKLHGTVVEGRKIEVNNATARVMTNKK
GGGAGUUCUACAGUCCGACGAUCGAUGUCUUCAAAAAAAAAUCAACAUGCAGAAUGGAAUUUGCAAUAAAGGCUUUUCUAAAACUGGCUCUUUCUGCCCAUCUUCCUCUUCACUCCUUCAUAGAAGACAGCAUUGGAAUUCUCGGGUGCCAA: 0.365
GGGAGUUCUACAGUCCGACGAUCCAAAGGCCCCGCAUCCCCAUCCUAGGAGUGCCCUAGAGACAAUUAAAUGUCCAUUCCUCUGGUGCUGCUGCUUGUGGUGUCCGGGUCCCUGCCUGGCAGAGGCAGAUAGUUGGAAUUCUCGGGUGCCAA: 1
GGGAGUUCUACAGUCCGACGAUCUACCUCUUUUAGCCUAGAUACAUGGAUUCUUUUCAAAUCAGGAAAGAUUAGAAAAGGAACCCAAAAAACCCUUUAACAGUGUGAAUCUUUAUAGUAUUUGAAAAUGAGAAUGGAAUUCUCGGGUGCCAA: 0.604
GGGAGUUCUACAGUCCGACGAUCGAGAACCACCCAAGGGUGUCGAUUAUAACAGAAUGUGGAGAGUGGGUGGCCGUCAUUGGGAAAGCAUCGAGAAAGAGGCGAGCUUUGCAUCUGUCCCUUGACAGGGAAGGUGGAAUUCUCGGGUGCCAA: 1.3
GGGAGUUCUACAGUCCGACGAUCGCAGUCAGGUUGUUUACCAGCCCUUUGCACCUCCCCAGGCAGAGGGAGCCUCUGUUCUGGUGGGGGCCACCUCCCUCAGAGGCUCUGCUAGCCACACUCCGUGGCCCACCUGGAAUUCUCGGGUGCCAA: 0.196
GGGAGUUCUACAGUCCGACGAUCUUCCGUAAAAUUGACUUUGUACUCUGAAAACGUCAAUUUAUAUUGAACUUGGAGGAGUUUGGCAAAGUCUGAAUAGGUCAACCUGCAGGCGUAACUAUUUUUGACCUAGUUGGAAUUCUCGGGUGCCAA: 0.369
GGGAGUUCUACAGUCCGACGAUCAGAUGCGAUUGGGCGGUACCACCAGUGUGCAACCAUCCAGCUGGAUUUCCAGUUGCCCAUCAGAUUUAAUCUUACUUAUGUAAGGCAUGAUGGUGAUGAUAAGAAAAGGCUGGAAUUCUCGGGUGCCAA: 0.174
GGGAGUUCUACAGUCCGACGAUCGGGACAAACAACCAAGCUAUGGGUGACAGAGGCUCUCUCCUGGUGCCUGCACCUGCACUCUAGUGACCCUGGGUGCCGCCAGACCCUUCUCUUCUACAAAGACCCCAGCAUGGAAUUCUCGGGUGCCAA: 1.46
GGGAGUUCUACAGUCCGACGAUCACCCCCUGUCAGAAGGUACCGUCGCAUAUCCAUGUGAAGCAGACGACUCCCUGCUUGCCGCACACACCUCGGACAGUGAGCAACCCAGGCUCUGCCGUGUUCAGACGUCGUGGAAUUCUCGGGUGCCAA: 0.648
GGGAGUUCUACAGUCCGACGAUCGCUUUUUCCUCUCCAGUCCAAAACACCUCACUGUUCCUGUCUACCUCGGGGUCAGGGCCCGGCAUGGCCAAGCCCUGGCCCAUCUGUGUCUGUGUCACUCCCCUCCCUUCUGGAAUUCUCGGGUGCCAA: 0.844
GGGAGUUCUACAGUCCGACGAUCGCCAUGAGCUACCCACUGGCAUCUCCAGGUUUUUUGUAGCAAACAGCCACUUAGUGCUUUGUCCUGGACUCCGCUCAGCCUGAGGCUGGGGAAUAGAAAGGGCAGACCCCUGGAAUUCUCGGGUGCCAA: 0.229
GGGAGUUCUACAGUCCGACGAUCAAGUAAAUAAAAGCCUUCGGUAAUAAUCAUGACAAUACAAGAGGCUGAGCUAGGCUACAGGGGAAAACUAUUGUGUUGUAAAGUUGCAUCGCUAUUUUAUAUUAAAAUGUUGGAAUUCUCGGGUGCCAA: 0.463

Mixed results
PhoQ, residues 284 288 289 292 302 303 AGGLSV
fold induction (PhoP, residues 12 14 15 18 19 HEGLL (Escherichia coli, UniProt P23836); Sort-seq, item: YFP reporter; E. coli; PhoQ-PhoP variant library, added: 10 µM Mg2+; relative to: high Mg2+ state, higher = stronger signaling): 0.343

Repeated from above (study 2):
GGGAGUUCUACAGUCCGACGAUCUCCCAAAUCCAGCAGCUAGAAGGAGCCUUGAGACAAAGCCUGGAAAUACAGGGAAGGCGAUAACAUUGUACAUUGGUUUACAUUUUUUCCCCCUGUGUUUUCUAGGGGAGGUCAUAGUGCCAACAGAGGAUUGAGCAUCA: 0.525 ratio
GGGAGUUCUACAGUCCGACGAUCAGGAGGAGAUUAAAGGGUGAGAGUGGGAUGGAGGAUUGUGUCAUGGCUCUGGAGACACUGUUCAGUGUCCUGCUUUCUCUGUGCAGACUGAUGGCCCCUUACACGCCCUUUCUGACUGAGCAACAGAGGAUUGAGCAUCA: 0.124 ratio
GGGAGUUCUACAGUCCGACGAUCAAAUCGUGUGUGUCAAAUAUUGAAAGUGCUUUAUCUACACUCCAGUAUGUAAGCAGUAUAGUAGUUUCUUUAGAGAAUAGGUCUGCCAUUGUAAAGUACAAUGCAAGCUUAGUCACUCCACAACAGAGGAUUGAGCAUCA: 2.13 ratio
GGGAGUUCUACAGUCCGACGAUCGGAAGCACAAUGAUGGAGAUUGAUGGUGACAAAGGCAAGCAGGGCGGGCCCACCUACUACAUAGACACCAAUGCCCUCCGCGUGCCCAGGGAGAACAUGGAGGCCAUCUCACCACUCAAGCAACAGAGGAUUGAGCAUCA: 0.199 ratio
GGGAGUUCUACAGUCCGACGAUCUGGCGCCUGCGCUCCCCACUCGUGUUUUUAAGUGUAUAAGAUGUAUAUACAUGUAUUUACAAUUGAGUUUUUGAUUAAUAAUGCUGAAAUGCUACUGGAGAUUAUGAAAAAUGUUUCAAUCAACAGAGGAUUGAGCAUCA: 0.21 ratio
